Experimental data collected from several papers.
Each numbered part is a random draw from the data of one study; scales do not carry over between parts.

Block 1 — method: protein-binding microarray; form: double-stranded DNA, one strand shown; matrix: in vitro; tested at: 250 nM; setting: 60-bp whole probe; with: salmon DNA 0.4 mg/ml; baseline: random background probes; direction: higher = stronger binding; measurement: log fluorescence; shared flanks, not repeated: GCCTAGCAC … GTCTTGATTCGCTTGACGCTGCTG
Target: Interferon regulatory factor 7, full length, phosphomimetic (IRF7, Homo sapiens, UniProt Q92985, residues 1-503, S101K/S471D/S472D/S475D/S476D/S477D/S483D/S484D/S487D)
Chain of UniProt Q92985 (whole entry, unmodified, looked up): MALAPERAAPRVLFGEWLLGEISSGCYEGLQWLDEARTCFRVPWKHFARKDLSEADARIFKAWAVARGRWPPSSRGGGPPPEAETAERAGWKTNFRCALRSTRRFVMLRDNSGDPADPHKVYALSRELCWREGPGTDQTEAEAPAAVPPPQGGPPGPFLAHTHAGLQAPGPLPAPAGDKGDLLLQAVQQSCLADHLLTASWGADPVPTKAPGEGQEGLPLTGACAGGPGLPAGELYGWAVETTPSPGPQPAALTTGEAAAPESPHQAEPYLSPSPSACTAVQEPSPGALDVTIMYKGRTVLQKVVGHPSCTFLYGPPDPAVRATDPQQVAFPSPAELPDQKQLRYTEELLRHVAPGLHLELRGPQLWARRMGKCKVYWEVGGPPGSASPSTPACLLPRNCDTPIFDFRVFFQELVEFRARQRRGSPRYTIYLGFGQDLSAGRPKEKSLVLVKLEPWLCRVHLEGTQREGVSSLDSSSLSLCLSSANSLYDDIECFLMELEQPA
GACGGACTGGACTTTCGGCACGTGCTA: -0.841 z-score
TCAAGCTTTTCATTTTTTACTGTGCTA: 0.145 z-score
GTGTATATATAATATATATTCGTGCTA: 0.325 z-score
TCAACTCTGCCTCTAACACTGTGCTAG: -0.126 z-score
TCATCTCTGCTTGTATCACTGTGCTAG: 0.444 z-score
AGGCATGTGGGTTCCATCATGTGCTAG: -0.602 z-score
TTAGATATCGGGTAGCGATTAGTGCTA: -0.2 z-score
ATAAAAATCTTTGTTGGAGGGGTGCTA: -0.177 z-score
GACGGACTGGTGTATCGGGACGTGCTA: -0.773 z-score
GACGGACTGGACACTGGGGCCGTGCTA: -1.04 z-score
GACGGACTGGTTCTCGGGACGTGCTAG: 0.0249 z-score

Block 2 — method: competition protein-binding microarray; form: double-stranded DNA, one strand shown; matrix: in vitro; tested at: 2 µM; with: Pho4 competitor, 0.05 µM; direction: higher = stronger binding; measurement: fluorescence intensity
Target: Centromere-binding protein 1, full length, His-tagged (CBF1, Saccharomyces cerevisiae, UniProt P17106, residues 1-351)
Chain of UniProt P17106 (whole entry, looked up): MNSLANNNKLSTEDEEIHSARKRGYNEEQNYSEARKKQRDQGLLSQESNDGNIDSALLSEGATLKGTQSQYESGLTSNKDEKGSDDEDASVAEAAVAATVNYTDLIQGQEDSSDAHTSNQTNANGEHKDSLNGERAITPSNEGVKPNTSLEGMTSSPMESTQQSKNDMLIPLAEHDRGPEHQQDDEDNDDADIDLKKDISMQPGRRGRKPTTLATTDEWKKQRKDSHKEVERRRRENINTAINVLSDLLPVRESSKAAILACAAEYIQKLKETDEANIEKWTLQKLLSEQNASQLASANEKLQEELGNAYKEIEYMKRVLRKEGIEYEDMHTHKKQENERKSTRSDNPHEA
Setting: whole 60-bp probe, lowest competitor level
TGCTGCATTTCTCACCACGTCCTGGTGGGAGTTTCCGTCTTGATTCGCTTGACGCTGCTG: 63.1 a.u.
CTTTCCCGATCTTGTCACGTTACTTTAGCACATTTGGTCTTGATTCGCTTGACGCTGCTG: 1060 a.u.
CTTTCCCGATCTTTTCACGTGCAGTTAGCACATTTGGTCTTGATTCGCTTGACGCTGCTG: 855 a.u.
TCTCGAAACAATTGCAATGTGACGGTCTTGTTAGGCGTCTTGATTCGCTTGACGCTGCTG: 80.4 a.u.
TTGTTGCAGTAATATTATGTGTCAAACCAGCCTGGCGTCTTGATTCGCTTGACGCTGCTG: 78.7 a.u.
CAAATGCCATGATTGCACGTGCAAAGTTTTGAGAAGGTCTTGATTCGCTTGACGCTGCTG: 2080 a.u.
AACAAGAAGATCCATCACGTGCTTTGAAAAAAAATAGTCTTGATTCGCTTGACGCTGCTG: 7530 a.u.
GCGACATCAACGAGTCACGTGACGGGCACTGCGTCGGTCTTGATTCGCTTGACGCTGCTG: 26700 a.u.
ATCGTTCAATTTATCTTCGGCATTTTTCTGAATTTTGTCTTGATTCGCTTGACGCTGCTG: 82.7 a.u.
CTTGTTATGTGGGAGCCCGTGAGAGGCTTGAAGTGGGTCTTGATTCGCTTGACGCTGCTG: 85.7 a.u.

Block 3 — method: universal PBM; form: double-stranded DNA, one strand shown; matrix: in vitro; tested at: 600 nM; direction: higher = stronger binding; measurement: E-score
Target: Sal-like protein 4, full length isoform A (SALL4, Homo sapiens, UniProt Q9UJQ4, residues 1-1053)
Chain of UniProt Q9UJQ4 (whole entry, looked up): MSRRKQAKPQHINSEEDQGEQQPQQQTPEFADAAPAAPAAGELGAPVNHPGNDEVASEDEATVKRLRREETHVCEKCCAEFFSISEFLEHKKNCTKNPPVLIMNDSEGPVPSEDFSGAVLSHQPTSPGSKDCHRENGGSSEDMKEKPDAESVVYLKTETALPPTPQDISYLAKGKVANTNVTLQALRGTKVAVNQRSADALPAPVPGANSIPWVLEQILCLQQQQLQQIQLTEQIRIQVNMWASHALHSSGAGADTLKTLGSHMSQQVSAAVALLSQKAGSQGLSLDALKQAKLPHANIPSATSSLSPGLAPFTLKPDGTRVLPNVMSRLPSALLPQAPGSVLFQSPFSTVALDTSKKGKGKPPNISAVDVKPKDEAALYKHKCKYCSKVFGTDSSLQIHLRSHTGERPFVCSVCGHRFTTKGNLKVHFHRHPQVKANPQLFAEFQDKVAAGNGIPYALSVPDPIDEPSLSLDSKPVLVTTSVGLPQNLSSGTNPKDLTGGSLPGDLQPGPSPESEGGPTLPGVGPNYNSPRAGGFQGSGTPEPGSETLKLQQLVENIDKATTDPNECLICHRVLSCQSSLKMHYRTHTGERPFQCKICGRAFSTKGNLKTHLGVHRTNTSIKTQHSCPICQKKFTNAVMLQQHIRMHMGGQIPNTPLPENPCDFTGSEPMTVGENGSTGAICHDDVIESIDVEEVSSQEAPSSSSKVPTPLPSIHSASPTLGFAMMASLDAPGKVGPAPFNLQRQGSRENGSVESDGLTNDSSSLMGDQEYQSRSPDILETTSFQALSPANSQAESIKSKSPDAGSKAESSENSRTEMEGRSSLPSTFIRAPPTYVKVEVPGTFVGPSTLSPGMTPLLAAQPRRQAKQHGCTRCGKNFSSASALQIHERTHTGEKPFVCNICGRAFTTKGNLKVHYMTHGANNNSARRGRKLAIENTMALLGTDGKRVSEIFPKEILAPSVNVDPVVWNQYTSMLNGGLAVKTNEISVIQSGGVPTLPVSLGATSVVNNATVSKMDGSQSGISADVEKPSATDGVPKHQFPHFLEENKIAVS
Setting: 8-mer, flanks averaged, mean of replicates
AATCTACT: 0.195
ATTTTTTA: 0.409
ACTCGCTG: -0.186
TCGCCAGA: -0.051
AACGACGT: 0.0736
ACTTGTCT: 0.0878
CGGGGACC: -0.355
GGTGCTCA: -0.197
AAGACATA: 0.27

Mixed results
PhoQ, residues 284 288 289 292 302 303 AEGLLW  fold induction (PhoP, residues 12 14 15 18 19 HHYTI (Escherichia coli, UniProt P23836); Sort-seq, measured: YFP reporter; E. coli; PhoQ-PhoP variant library, with: 10 µM Mg2+; baseline: high Mg2+ state, higher = stronger signaling): 12.9

Some of these lines once more (block 2):
TGCTGCATTTCTCACCACGTCCTGGTGGGAGTTTCCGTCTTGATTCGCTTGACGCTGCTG: 63.1 a.u.
CTTTCCCGATCTTGTCACGTTACTTTAGCACATTTGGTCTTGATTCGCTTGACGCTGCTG: 1060 a.u.
CTTTCCCGATCTTTTCACGTGCAGTTAGCACATTTGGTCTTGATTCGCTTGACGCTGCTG: 855 a.u.
